Published values collected from several papers.
Each line is one published result; not all experiments were run side by side.

The clearance of `Cc1cn(-c2cc(NC(=O)c3ccc(C)c(Nc4nccc(-c5cccnc5)n4)c3)cc(C(F)(F)F)c2)cn1` is reported as 572 mL/min (population PK model; human, plasma; oral, fasted, typical value).
For `CO[C@]1(C(=O)N[C@@H](C)c2ccc(-n3cc(F)cn3)nc2)CC[C@H](c2nc(C)cc(Nc3cc(C)[nH]n3)n2)CC1`, the clearance was 134 mL/min (human; oral, population PK, assumed F=0.5).
With `CN(C)N=Nc1[nH]cnc1C(N)=O` the clearance was 9.62 L/h/m² (human patients, plasma; intravenous infusion, 1000 mg/m^2, 1 h infusion, cycle 1 day 1, alone).
`O=C(/C=C/c1cccc(S(=O)(=O)Nc2ccccc2)c1)NO` gave a clearance of 33.4 L/h/m² (human patients, plasma; 1800 mg/m^2).
`CCN(CC)CCN(CCNCCc1ccc(O)c2[nH]c(=O)sc12)C(=O)CCOCCc1cccc2ccccc12` gave a clearance of 3.83 mL/min/kg (human).
For `NC(=O)c1cnc2[nH]ccc2c1N[C@@H]1[C@@H]2CC3C[C@H]1C[C@@](O)(C3)C2`, the clearance was 1390 mL/min (human, plasma; oral).
`CC(=O)O[C@H]1C(=O)[C@@]2(C)[C@H]([C@H](OC(=O)c3ccccc3)[C@]3(O)C[C@H](OC(=O)[C@H](O)[C@@H](NC(=O)c4ccccc4)c4ccccc4)C(C)=C1C3(C)C)[C@]1(OC(C)=O)CO[C@@H]1C[C@@H]2O` gave a clearance of 277 mL/min (human, plasma; intravenous infusion, 80 mg/m^2, day 5, with oral co-drug daily).
The clearance of `Cn1cnc2c(F)c(Nc3ccc(Br)cc3Cl)c(C(=O)NOCCO)cc21` is reported as 210 mL/min (nonlinear absorption model; human, plasma; oral).
`CN[C@@H](C)C(=O)N[C@H]1CN(S(=O)(=O)c2cccc(S(=O)(=O)N3CC[C@H]4CC[C@@H](C(=O)NC(c5ccccc5)c5ccccc5)N4C(=O)[C@@H](NC(=O)[C@H](C)NC)C3)c2)CC[C@H]2CC[C@@H](C(=O)NC(c3ccccc3)c3ccccc3)N2C1=O` gave a clearance of 1980 mL/min (LC-MS/MS, noncompartmental; human, plasma; 20 mg, cycle 1 day 1).
`Cc1ccc([C@@H]2O[C@H](CO)[C@@H](O)[C@H](O)[C@H]2O)cc1Cc1ccc(-c2ccc(F)cc2)s1` has a clearance of 180 mL/min (human, maintenance hemodialysis patients; oral, 100 mg once daily, steady state, median).
`Nc1ccn([C@@H]2O[C@H](CO)[C@@H](O)C2(F)F)c(=O)n1` gave a clearance of 59.7 L/h/m² (HPLC-UV; human, plasma; 800 mg/m^2, mean, before paricalcitol).
For `CN(C)CCCNC(=O)/C(=C/CCCCC(=O)NO)COc1cccc2ccccc12`, the clearance was 118 mL/min (human; iv, 312.5 mg/m2, day 1, single dose, mean).
With `CC1(C)CCC(CN2CCN(c3ccc(C(=O)NS(=O)(=O)c4ccc(NCC5CCOCC5)c([N+](=O)[O-])c4)c(Oc4cnc5[nH]ccc5c4)c3)CC2)=C(c2ccc(Cl)cc2)C1` the clearance was 66.7 mL/min (human CLL patients, plasma; oral, median).
`NS(=O)(=O)OC[C@@H]1C[C@@H](n2ccc3c(N[C@H]4CCc5ccccc54)ncnc32)C[C@@H]1O` has a clearance of 18 L/h/m² (human patients sample A years or younger, plasma; median, BSA-adjusted).
`COc1cc(NC(=O)CCN2CCC(OC(=O)Nc3ccccc3-c3ccccc3)CC2)c(Cl)cc1CNC[C@H](O)c1ccc(O)c2[nH]c(=O)ccc12` has a clearance of 55 mL/min/kg (human).
`NC(=O)N1c2ccccc2CC(O)c2ccccc21` (centres unmarked) gave a clearance of 47.2 mL/min (population PK modelling; human patients, plasma; weight-scaled, proportional error).
`COC[C@@H](c1ccc(C(F)(F)F)cc1)N1CCN(C2(C)CCN(C(=O)c3c(C)ncnc3C)CC2)C[C@@H]1C` has a clearance of 58.3 mL/min (human; population PK model, together with: ritonavir).

For quick reference, copied from above:
`O=C(/C=C/c1cccc(S(=O)(=O)Nc2ccccc2)c1)NO` gave a clearance of 33.4 L/h/m² (human patients, plasma; 1800 mg/m^2).
`NC(=O)N1c2ccccc2CC(O)c2ccccc21` (centres unmarked) gave a clearance of 47.2 mL/min (population PK modelling; human patients, plasma; weight-scaled, proportional error).
